Results of several laboratories.
Organism: Enterococcus faecium

| Structure (SMILES) | technique | strain | together with | direction | MIC |
| --- | --- | --- | --- | --- | --- |
| CCCCN(C(=O)Nc1cc(-c2ccc(Cl)c(Cl)c2)sc1C(=O)O)c1ccccc1 | – | DSM 20477 | no added folic acid | – | 16 µM |
| CC(=O)NC[C@H]1CN(c2ccc(N3CCOCC3)c(F)c2)C(=O)O1 | – | NR-31933 | – | – | 2.96 µM |
| C/C=C(\C)c1cc(OC(=O)c2c(C)c(Cl)c(O)c(Cl)c2O)c(C)c(O)c1C(=O)O | broth microdilution | 36235 | – | – | > 64 µg/mL |
| CC(C)(CN)CNCc1nc2ccccc2n1CCOc1ccccc1 | – | NCTC 7171 | – | – | 8 µg/mL |
| CCCCCCC#Cc1cncc(-c2nnc(SCc3ccc(Cl)c(F)c3)n2C)c1 | – | vancomycin-resistant | – | no activity at value | ≥ 20 µg/mL |
| CN[C@H](CC(C)C)C(=O)N[C@H]1C(=O)N[C@@H](CC(N)=O)C(=O)N[C@H]2C(=O)N[C@H]3C(=O)N[C@H](C(=O)N[C@H](C(=O)O)c4cc(O)cc(O)c4-c4cc3ccc4O)[C@H](O)c3ccc(c(Cl)c3)Oc3cc2cc(c3O[C@@H]2O[C@H](CO)[C@@H](O)[C@H](O)[C@H]2O[C@H]2C[C@](C)(N)[C@H](O)[C@H](C)O2)Oc2ccc(cc2Cl)[C@H]1O | – | strain -30, vancomycin-intermediate | – | – | 4 µg/mL |
| c1ccc(OCCn2c(CNCC34CC5CC(CC(C5)C3)C4)nc3ccccc32)cc1 | – | ATCC 19434 | – | – | > 128 µg/mL |
| C/C=C(\C)c1cc(O)c(C)c(OC(=O)c2c(C)c(Cl)c(O)c(Cl)c2O)c1 | broth microdilution | 36235 | – | – | 8 µg/mL |
| Cc1ccc(CCC(=O)Nc2nnc(S(N)(=O)=O)s2)cc1 | – | NR-32053 | – | – | 0.0919 µM |
| CC1(C)S[C@@H]2[C@H](NC(=O)[C@H](N)c3ccccc3)C(=O)N2[C@H]1C(=O)O | broth microdilution | 36711 | – | – | > 64 µg/mL |
| CCCCCCC#Cc1cncc(-c2nnc(SCc3ccc(Cl)cc3)n2C)c1 | – | vancomycin-resistant | – | no activity at value | ≥ 20 µg/mL |
| CN[C@H](CC(C)C)C(=O)N[C@H]1C(=O)N[C@@H](CC(N)=O)C(=O)N[C@H]2C(=O)N[C@H]3C(=O)N[C@H](C(=O)N[C@H](C(=O)O)c4cc(O)cc(O)c4-c4cc3ccc4O)[C@H](O)c3ccc(c(Cl)c3)Oc3cc2cc(c3O[C@@H]2O[C@H](CO)[C@@H](O)[C@H](O)[C@H]2O[C@H]2C[C@](C)(N)[C@H](O)[C@H](C)O2)Oc2ccc(cc2Cl)[C@H]1O | broth microdilution | 36711 | – | – | > 64 µg/mL |
| C[N+](C)(C)CCCN | – | VanA VRE ATCC BAA-2317 | LTA 100 µg/mL | – | > 800 µg/mL |

A few entries again:
| Structure (SMILES) | technique | strain | together with | direction | MIC |
| --- | --- | --- | --- | --- | --- |
| CN[C@H](CC(C)C)C(=O)N[C@H]1C(=O)N[C@@H](CC(N)=O)C(=O)N[C@H]2C(=O)N[C@H]3C(=O)N[C@H](C(=O)N[C@H](C(=O)O)c4cc(O)cc(O)c4-c4cc3ccc4O)[C@H](O)c3ccc(c(Cl)c3)Oc3cc2cc(c3O[C@@H]2O[C@H](CO)[C@@H](O)[C@H](O)[C@H]2O[C@H]2C[C@](C)(N)[C@H](O)[C@H](C)O2)Oc2ccc(cc2Cl)[C@H]1O | – | strain -30, vancomycin-intermediate | – | – | 4 µg/mL |
